Measured values collected from several papers.
Every numbered part comes from another study and shows a few of its results, in no order. Substitutions count along the parent as printed.

Study 1 — target: UBE2D2 UBC core domain (UniProt P62837); method: yeast two-hybrid; sample: yeast; notes: mostly zero background; relative to: not given; reading: higher = stronger interaction
UniProt P62837, sequence (whole entry, looked up): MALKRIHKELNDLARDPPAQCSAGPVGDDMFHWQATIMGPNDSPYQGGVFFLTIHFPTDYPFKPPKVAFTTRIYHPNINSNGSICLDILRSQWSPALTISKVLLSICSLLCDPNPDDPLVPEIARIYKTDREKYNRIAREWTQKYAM
B1: TRIM11 RING domain (UniProt Q96F44); chain LSTNLQEEATCAICLDYFTDPVMTDCGHNFCRECIRRCWGQPEGPYACPECRELSPQRNLRP
B2: BFAR RING domain (UniProt Q9NZS9); chain GPQISVSEFSCHCCYDILVNPTTLNCGHSFCRHCLALWWASSKKTECPECREKWEGFPKVS
B3: ZNRF4 RING domain (UniProt Q8WWF5); chain VRTFTWHNDLCAICLDEYEEGDQLKILPCSHTYHCKCIDPWFSQAPRRSCPVCKQSVAATEDSF
B4: ARIH2 RING domain (UniProt O95376); chain HVPTSHPPHHCAVCMQFVRKENLLSLACQHQFCRSCWEQHCSVLVKDGVGVGVSCMAQDCPLRTPEDFVF
B5: TRIM41 RING domain (UniProt Q8WV44); chain PVQTLQEEAVCAICLDYFTDPVSIGCGHNFCRVCVTQLWGGEDEEDRDELDREEEEEDGEEE
Molecule | lacZ reporter activity
B1 (TRIM11 RING domain) | 0
B2 (BFAR RING domain) | 0
B3 (ZNRF4 RING domain) | 12700
ASPKIFQKTKCSICNSALELPSVHFLCGHSFHQHCFESYSESDADCPTCLPENRKVMDMI (VPS11 RING domain (UniProt Q9H270)) | 0
B4 (ARIH2 RING domain) | 0
B5 (TRIM41 RING domain) | 0
LVKDFNPYITCYICKGYLIKPTTVTECLHTFCKTCIVQHFEDSNDCPRCGNQVHETNPLE (PCGF5 RING domain (UniProt Q86SE9)) | 0
DDVLTKDAGECVICLEELLQGDTIARLPCLCIYHKSCIDSWFEVNRSCPEHPAD (ZNRF1 RING domain (UniProt Q8ND25)) | 13600

Study 2 — effect on: peptide-MHC binding; form: peptide; concentration: concentration not given
Target: HLA class I histocompatibility antigen, A alpha chain, allele A*25:01 (Homo sapiens, UniProt P04439)
Molecule | binding
SELTVSPPD | inactive
LPLKMLNIPSINVH | inactive
KSAFYQSYL | inactive
NYNGLLSSI | inactive
WQDGGWQSV | inactive
SVFALLPPQ | inactive
AEDLADHHV | inactive
RQRHYFDSA | inactive

Study 3 — target: CCND2, cyclin fold, Cln2 fusion (human); method: yeast growth competition, sequencing; sample: yeast; notes: strong parent motif; relative to: not given; reading: higher = stronger binding
Parent: viral docking peptide; YKVKRRLVFGADD; partner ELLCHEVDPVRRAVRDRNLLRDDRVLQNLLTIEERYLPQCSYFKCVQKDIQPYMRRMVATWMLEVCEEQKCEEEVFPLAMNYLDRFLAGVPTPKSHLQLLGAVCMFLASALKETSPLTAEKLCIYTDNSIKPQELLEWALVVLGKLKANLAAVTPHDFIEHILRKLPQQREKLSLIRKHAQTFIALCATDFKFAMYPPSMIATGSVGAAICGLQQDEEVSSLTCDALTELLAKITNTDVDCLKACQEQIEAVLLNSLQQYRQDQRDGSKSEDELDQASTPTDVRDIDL
Variant | normalised enrichment score
YKVKRRLVFGAID [D12I] | 0.677
YKQKRRLVFGADD [V3Q] | 0.126
YKVKRRLVFGACD [D12C] | 0.815
YKVKRRLVFGAGD [D12G] | 1.67
YKVKRRLNFGADD [V8N] | 1.29
YVVKRRLVFGADD [K2V] | 1.04
YKVRRRLVFGADD [K4R] | 1.82
YKVKRRVVFGADD [L7V] | -0.096

Further values, each from its own experiment
SMILES | method | measurement | result
CCOC(=O)[C@@H]1CSCC(=O)N[C@H](CC)C(=O)N(C)[C@@H](C)C(=O)N[C@@H](CC(C)C)C(=O)N(C)[C@H](C)C(=O)N(CC(C)C)CC(=O)N[C@H](CC(C)C)C(=O)N(C)[C@H](C)C(=O)N[C@@H](CC(C)C)C(=O)N1C | PRP-column chromatography | log k' (60) | 1.21
